Published values collected from several papers.
Compare with care: the assays were run in different laboratories. Several values in a cell are separate wells, animals, samples, runs or records. Values after ≈ are worked out from the molar mass of the structure shown.

Structure (SMILES)	organism	assay	test system	setting	scale	quantity	value
COc1cc(Nc2nccc(-c3cnn4nc(OC)ccc34)n2)cc(C(F)(F)F)c1	murine hepatitis virus	viral replication, nanoluciferase reporter	DBT	1 µM, 10 h	baseline: DMSO vehicle	inhibition	61%
Nc1ccn([C@@H]2O[C@H](CO)[C@@H](O)C2(F)F)c(=O)n1	human alphaherpesvirus 1	–	K26 GFP, 3D skin equivalent, submerged	–	baseline: CC50 over IC50	selectivity index	> 52.6
Cc1cccc2c(-c3ccncc3)c(-c3ccc(F)cc3)nn12	Aspergillus fumigatus	–	–	20 µM	baseline: untreated	metabolic activity	≥ 80%
CS(=O)(=O)CCCn1c(Cn2c(=O)n(CC(F)(F)F)c3ccncc32)cc2cc(Cl)ccc21	respiratory syncytial virus	RT-qPCR	hospitalized infants 1-24 months, nasal swab	oral, 1-9 mg/kg daily, day 5, all doses combined	baseline: placebo	LS mean difference vs placebo	-1.05 log10 copies/mL
CC(C)[C@H](NC(=O)[C@H](CCCNC(=N)N)NC(=O)[C@H](Cc1c[nH]c2ccccc12)NC(=O)[C@H](CCCNC(=N)N)NC(=O)[C@H](Cc1c[nH]c2ccccc12)NC(=O)[C@H](Cc1c[nH]c2ccccc12)NC(=O)[C@H](Cc1c[nH]c2ccccc12)NC(=O)[C@H](CCCNC(=N)N)NC(=O)[C@H](Cc1c[nH]c2ccccc12)NC(=O)[C@@H](N)CCCNC(=N)N)C(N)=O	Candida parapsilosis	broth microdilution	CGMCC 2.399, RPMI 1640-MOPS	48 h, 30 °C	–	MIC	8 µM
Cn1cc(Cl)c2c(Oc3c(F)cc(Nc4cc(Cl)nc(N)n4)cc3F)ccnc21	murine hepatitis virus	viral replication, nanoluciferase reporter	DBT	1 µM, 10 h	baseline: DMSO vehicle	inhibition	-8%
COC(=O)C1=C(C)NC(C)=C(C(=O)OC(C)(C)CN(C)CCC(c2ccccc2)c2ccccc2)C1c1cccc([N+](=O)[O-])c1 (stereo not drawn)	Aspergillus fumigatus	Alamar blue	–	3.95 µg/mL, 48 h, together with: caspofungin 0.2 µg/mL	–	metabolic activity	41.8% and 34.3%
O=C(O)[C@@H]1[O][Sb](=[O])([O][Sb]2(=[O])[O][C@H]([C@H](O)CO)[C@H](O)[C@H](C(=O)O)[O]2)[O][C@H]([C@H](O)CO)[C@@H]1O.[Na+].[Na+].[Na+] (stereo partly drawn)	Leishmania mexicana	parasite growth, propidium iodide flow cytometry	promastigotes	48 h	–	IC50	346 µM
CCCCc1c([N+](=O)[O-])oc2ccc3ccccc3c12	Mycobacterium avium subsp. hominissuis	REMA	ATCC 25291	–	–	MIC90	16 µg/mL (≈ 59.4 µM)
Nc1ncnc2c([C@@H]3N[C@H](CO)[C@@H](O)[C@H]3O)c[nH]c12	Measles morbillivirus	viral replication	Vero 76, Chicago	9.5 µM	–	inhibition	63.5%
CCCCCCCCCCCCN(C)C(=O)CP(=O)(O)O	Bacillus cereus	–	1056 strains	–	–	MIC90	0.024 µg/mL (≈ 0.0747 µM)
CN([C@@H](Cc1ccc(OS(=O)(=O)c2cccc3cnccc23)cc1)C(=O)N1CCN(c2ccccc2)CC1)S(=O)(=O)c1cccc2cnccc12	murine hepatitis virus	viral replication, nanoluciferase reporter	DBT	1 µM	baseline: DMSO vehicle	inhibition	28%
C#Cc1ccc(O)c(C=NNC(=O)c2ccc(C3(C(F)(F)F)N=N3)cc2)c1	Aspergillus fumigatus	–	293	unit not given, together with: voriconazole	lower = more synergy	FICI	2
CC(C)C[C@H](NC(=O)CNC(=O)CNC(=O)CNC(=O)[C@H](Cc1ccc(O)cc1)NC(=O)[C@H](CC(C)C)NC(=O)[C@@H](NC(=O)CNC(=O)[C@H](Cc1ccc(O)cc1)NC(=O)[C@H](CCCCN)NC(=O)[C@H](CC(N)=O)NC(=O)[C@@H](NC(=O)[C@H](CCCCN)NC(=O)[C@H](Cc1c[nH]c2ccccc12)NC(=O)CN)[C@@H](C)O)[C@@H](C)O)C(=O)N[C@@H](CCCCN)C(=O)N[C@@H](CCCCN)C(=O)N[C@@H](CC(C)C)C(=O)N[C@@H](CC(C)C)C(=O)N[C@@H](CC(C)C)C(=O)N[C@@H](CC(C)C)C(=O)N[C@@H](CC(C)C)C(=O)N[C@@H](CCCCN)C(=O)N[C@@H](CCCCN)C(=O)N[C@@H](CC(C)C)C(=O)NCC(=O)O	Staphylococcus aureus	–	USA300	together with: 8 µM ZnCl2	–	MIC	32 µg/mL
CC1(C)CC(=O)c2c(C(F)(F)F)nn(-c3ccc(C(N)=O)c(N[C@H]4CC[C@H](O)CC4)c3)c2C1	human alphaherpesvirus 1	–	primary human keratinocytes, K26 GFP	–	baseline: CC50 over IC50	selectivity index	5.63
CN(C)CCCn1cc(C2=C(c3c[nH]c4ccccc34)C(=O)NC2=O)c2ccccc21	murine hepatitis virus	viral replication, nanoluciferase reporter	DBT	1 µM	baseline: DMSO vehicle	inhibition	37%
Nc1ncnc2c1ncn2[C@@H]1O[C@@H]2COP(=O)(O)O[C@H]3[C@@H](O)[C@H](n4cnc5c(=O)[nH]cnc54)O[C@@H]3COP(=O)(O)O[C@H]2[C@H]1O	West Nile virus	RNA sequencing, measured: elastic fibre associated molecules R-HSA-2129379	HFF-1 cells	concentration not given, downregulated pathway	baseline: WNV-infected untreated cells	fold enrichment	7.44
COc1ccc2c(ccc3oc([N+](=O)[O-])c(C)c32)c1	Mycobacterium avium subsp. hominissuis	REMA	ATCC 25291	–	–	MIC90	> 32 µg/mL
CC(C)C[C@H](NC(=O)[C@H](CCCNC(=N)N)NC(=O)[C@H](Cc1c[nH]c2ccccc12)NC(=O)[C@H](CCCNC(=N)N)NC(=O)[C@H](Cc1c[nH]c2ccccc12)NC(=O)[C@H](Cc1c[nH]c2ccccc12)NC(=O)[C@H](Cc1c[nH]c2ccccc12)NC(=O)[C@H](CCCNC(=N)N)NC(=O)[C@H](Cc1c[nH]c2ccccc12)NC(=O)[C@@H](N)CCCNC(=N)N)C(N)=O	Candida albicans	broth microdilution	CGMCC 2.209, RPMI 1640-MOPS	48 h, 30 °C, together with: MgCl2 1 mM	–	MIC	16 µM
CCc1ccccc1C(=O)Nc1n[nH]c2c(C)c(F)c(C3C(C#N)=C(C)N(C)C(C)=C3C#N)cc12	murine hepatitis virus	viral replication, nanoluciferase reporter	DBT	1 µM, 10 h	baseline: DMSO vehicle	inhibition	-4%
CC(C)[C@H](NC(=O)[C@H](CCCNC(=N)N)NC(=O)[C@H](Cc1c[nH]c2ccccc12)NC(=O)[C@H](CCCNC(=N)N)NC(=O)[C@H](Cc1c[nH]c2ccccc12)NC(=O)[C@H](Cc1c[nH]c2ccccc12)NC(=O)[C@H](Cc1c[nH]c2ccccc12)NC(=O)[C@H](CCCNC(=N)N)NC(=O)[C@H](Cc1c[nH]c2ccccc12)NC(=O)[C@H](CCCNC(=N)N)NC(=O)CN)C(N)=O	Candida parapsilosis	broth microdilution	CGMCC 2.399, RPMI 1640-MOPS	48 h, 30 °C	–	MIC	8 µM
C[C@H]1c2cccc(O)c2C(=O)C2=C(O)[C@]3(O)C(=O)C(C(N)=O)=C(O)[C@@H](N(C)C)[C@@H]3[C@@H](O)[C@@H]21	Enterococcus faecalis and Enterococcus faecium	–	–	–	–	MIC90	16 µg/mL (≈ 36 µM)
NC(=O)c1ccc(N(C(N)=O)c2c(F)cccc2F)nc1-c1ccc(F)cc1F	murine hepatitis virus	viral replication, nanoluciferase reporter	DBT	1 µM, 10 h	baseline: DMSO vehicle	inhibition	15%
CCOC(=O)COc1ccc2ccc3oc([N+](=O)[O-])cc3c2c1	Mycobacterium avium subsp. hominissuis	REMA	ATCC 25291	–	–	MIC90	0.0625 µg/mL (≈ 0.198 µM)
